Experimental data gathered from unrelated publications.
Lines come from different studies, so protocols differ. Several values in a cell are separate wells, animals, samples, runs or records. Numbers after ± are the reported error. No end group written: not given here.
ERAP1 L733R: Endoplasmic reticulum aminopeptidase 1 (ERAP1, Homo sapiens, UniProt Q9NZ08, L733R)
Kelch domain-containing protein 2: Kelch domain-containing protein 2 (UniProt Q9Y2U9)
YAP1 WW1 domain: Transcriptional coactivator YAP1, WW1 domain (YAP1, Homo sapiens, UniProt P46937)
KCNT1: Potassium channel subfamily T member 1 (KCNT1, Homo sapiens, UniProt Q5JUK3)
YAP1 WW2 domain: Transcriptional coactivator YAP1, WW2 domain (YAP1, Homo sapiens, UniProt P46937)

Substance	target	test	system	conditions	how to read	quantity	value
IINFEKE	ERAP1 L733R	substrate	peptide	pH 8.0, 27 °C, mutant L733R, together with: L-AMC, peptide activator 100 µM	–	K1/2 of L-AMC	0.23 ± 0.08 mM
EGEVIVFGG	Kelch domain-containing protein 2	native mass spectrometry	peptide, 200 mM ammonium acetate	20 µM Kelch domain-containing protein 2, pH 7	relative to: total Kelch domain-containing protein 2 signal	fraction of protein bound	4.3%
Nc1ccc(-c2nc([C@H]3CCc4cc(-c5cc(Cl)ccc5-n5cnnn5)cc(=O)n43)c(F)[nH]2)c(F)n1	Coagulation factor XI (F11, Homo sapiens, UniProt P03951)	factor XI coagulant activity	human, blood	oral, 150 mg once daily, 14 days, fed	–	maximum inhibition	85 ± 5.2%
SDEGEVIVFGG	Kelch domain-containing protein 2	native mass spectrometry	peptide, 200 mM ammonium acetate	20 µM Kelch domain-containing protein 2, pH 7	relative to: total Kelch domain-containing protein 2 signal	fraction of protein bound	5.5%
CC(C)C[C@H](NC(=O)[C@@H](NC(=O)[C@@H](N)[C@@H](C)O)C(C)C)C(=O)N[C@@H](C)C(=O)N1CCC[C@H]1C(=O)N1CCC[C@H]1C(=O)N1CCC[C@H]1C(=O)N[C@@H](Cc1ccc(O)cc1)C(=O)N[C@@H](CCCNC(=N)N)C(=O)N[C@@H](Cc1c[nH]cn1)C(=O)N[C@@H](CCCNC(=N)N)C(=O)N[C@@H](CC(N)=O)C(=O)O	YAP1 WW1 domain	binding, ITC	–	pH 7.0, 25 °C, WW1 domain	–	TΔS	-10.2 ± 0.83 kcal/mol
CCOc1ccccc1S(=O)(=O)N1CC(c2ncc(-c3ccc(F)cc3)o2)C1	KCNT1	Tl+ flux, activator	HEK293 expressing KCNT1	30 µM	relative to: loxapine maximum response	efficacy	34%
Cc1cc(=O)oc2cc(NC(=O)[C@@H](N)CC(C)C)ccc12	ERAP1 L733R	hydrolysis of compound, substrate	–	varied from 0 µM, 5 min, pH 8.0, 27 °C, mutant L733R, no peptide activator	–	Vmax	50 ± 1 nmol/min/µg
COC1=C(OC)C(=O)C(C/C=C(\C)CC/C=C(\C)CC/C=C(\C)CCC=C(C)C)=C(C)C1=O	Prosaposin, Saposin B (PSAP, Homo sapiens, UniProt P07602)	binding, tyrosine fluorescence quenching	–	pH 5.5, 25 °C, 40 µM saposin B, 50 mM phosphate	–	log association constant	5.1
C=C[C@H](C)C[C@@H]1NC(=O)[C@H]([C@@H](O)C(C)C)N(C)C(=O)[C@H](C)N(C)C(=O)[C@@H]([C@@H](C)CC)NC(=O)[C@@H]([C@H](O)C(C)C)NC(=O)[C@H]2CCCCN2C(=O)[C@H](C)N(C)C1=O	Elongation factor 1-alpha 1, ternary complex on ribosome (EEF1A1, Homo sapiens, UniProt P68104)	inhibitor, smFRET washout	–	10 µM, 30 s preincubation, 25 °C	–	residence time	0.85 min
CCOc1ccccc1S(=O)(=O)N1CCC(c2nc(-c3ccc(F)cc3)no2)CC1	KCNT1	ion current, activator, automated patch clamp	CHO	30 µM	relative to: bepridil 60 µM	efficacy	100%
CC(C)[C@H](NC(=O)[C@@H](N)[C@@H](C)O)C(=O)N[C@@H](C)C(=O)N1CCC[C@H]1C(=O)N1CCC[C@H]1C(=O)N1CCC[C@H]1C(=O)N1CCC[C@H]1C(=O)N[C@@H](Cc1ccc(O)cc1)C(=O)N[C@@H](CCCNC(=N)N)C(=O)N[C@@H](Cc1c[nH]cn1)C(=O)N[C@@H](CCCNC(=N)N)C(=O)N[C@@H](CC(N)=O)C(=O)O	YAP1 WW2 domain	binding, ITC	–	pH 7.0, 25 °C, WW2 domain	–	TΔS	-7.47 ± 0.09 kcal/mol
Cc1cc(C)c2cc(C#N)c(N3CCN(C(=O)c4ccncc4)CC3)nc2c1	Cystic fibrosis transmembrane conductance regulator (CFTR, Homo sapiens, UniProt P13569, del508-508)	iodide influx, potentiator	FRT expressing ΔF508-CFTR and YFP	up to 50 µM, low-temperature rescued, together with: forskolin 20 µM	–	EC50	inactive
KKKKETDV-OH (C-acid)	Peripheral plasma membrane protein CASK, PDZ domain (CASK, Homo sapiens, UniProt O14936)	PDZ binding to syndecan-2 peptide	–	50 µM, 45 min, 4 °C	–	binding competition	no effect
CC[C@H](C)[C@H](NC(=O)[C@@H]1CCCN1C(=O)[C@@H]1CCCN1C(=O)[C@@H]1CCCN1C(=O)[C@@H](NC(=O)[C@H](CC(N)=O)NC(=O)[C@@H](N)Cc1ccccc1)[C@@H](C)CC)C(=O)N[C@@H](Cc1ccc(O)cc1)C(=O)N[C@H](C(=O)N[C@@H](CO)C(=O)N[C@@H](CCCNC(=N)N)C(=O)N[C@@H](C)C(=O)O)[C@@H](C)O	YAP1 WW2 domain	binding, ITC	–	pH 7.0, 25 °C, WW2 domain	–	TΔS	1.57 ± 0.55 kcal/mol
C/C(=N/N=c1/scc(-c2ccc([N+](=O)[O-])cc2)n1-c1ccc(F)cc1)c1ccc2c(c1)NC(=O)CO2	Aldo-keto reductase family 1 member A1 (Bos taurus, UniProt Q3ZCJ2)	enzyme activity, inhibitor, absorbance	–	1 mM	–	inhibition	24.7%
OC[C@@H]1[C@@H](O)[C@H](O)[C@@H](O)[C@@H]2O[C@H]12	Lysosomal acid glucosylceramidase (GBA1, Homo sapiens, UniProt P04062, R534H)	enzyme activity, inhibitor	–	pH 5.2	–	kinact/KI	1300 M⁻¹ s⁻¹
CC(C)C[C@H](NC(=O)[C@H](C)NC(=O)[C@@H](N)[C@@H](C)O)C(=O)N1CCC[C@H]1C(=O)N1CCC[C@H]1C(=O)N1CCC[C@H]1C(=O)N1CCC[C@H]1C(=O)N[C@@H](Cc1ccc(O)cc1)C(=O)N[C@@H](CCCNC(=N)N)C(=O)N[C@@H](Cc1c[nH]cn1)C(=O)N[C@@H](CCCNC(=N)N)C(=O)N[C@@H](CC(N)=O)C(=O)O	YAP1 WW1 domain	binding, ITC	–	pH 7.0, 25 °C, WW1 domain	–	TΔS	-11 ± 0.73 kcal/mol

Substance	target	test	system	conditions	how to read	quantity	value
Clc1ccc(SSc2ccc(Cl)cc2)cc1	tubulin	colchicine binding, [3H]colchicine binding	–	50 µM, 10 min, 37 °C, together with: [3H]colchicine 5.0 µM	–	inhibition	0 ± 4%
PEFGG	Kelch domain-containing protein 2	native mass spectrometry	peptide, 200 mM ammonium acetate	20 µM Kelch domain-containing protein 2, pH 7	relative to: total Kelch domain-containing protein 2 signal	fraction of protein bound	0%
CC(C)C[C@H](NC(=O)[C@@H](NC(=O)[C@@H](N)[C@@H](C)O)C(C)C)C(=O)N1CCC[C@H]1C(=O)N1CCC[C@H]1C(=O)N1CCC[C@H]1C(=O)N1CCC[C@H]1C(=O)N[C@@H](Cc1ccc(O)cc1)C(=O)N[C@@H](CCCNC(=N)N)C(=O)N[C@@H](Cc1c[nH]cn1)C(=O)N[C@@H](CCCNC(=N)N)C(=O)N[C@@H](CC(N)=O)C(=O)O	YAP1 WW2 domain	binding, ITC	–	pH 7.0, 25 °C, WW2 domain	–	TΔS	-1.9 ± 0.58 kcal/mol
C=CC(=O)Nc1ccccc1Nc1nc(Nc2ccc(N3CCN(C)CC3)cc2)ncc1Cl	AP2-associated protein kinase 1 (AAK1, Homo sapiens, UniProt Q2M2I8)	covalent ligand, chemoproteomic competition	NCI-H23 (KRAS G12C)	1 µM, 2 h, together with: compound-desthiobiotin probe 2 µM	–	probe labelling	> 50%
Clc1cccc(SSc2cccc(Cl)c2)c1	tubulin	colchicine binding, [3H]colchicine binding	–	50 µM, 10 min, 37 °C, together with: [3H]colchicine 5.0 µM	–	inhibition	18 ± 5%
IKPAKRMKFKTVCYLLVQLMHCRKMFKA	Calmodulin-1 (Calm1, Rattus norvegicus, UniProt P0DP29)	Ca2+ dissociation, stopped-flow quin-2 fluorescence	peptide	2 µM, pH 7.4, 22 °C, together with: Ca2+-calmodulin complex	–	koff1	7.98 s⁻¹ and 8 s⁻¹
O=S(=O)(Sc1ccc(Br)cc1)c1ccc(Br)cc1	tubulin	colchicine binding, [3H]colchicine binding	–	50 µM, 10 min, 37 °C, together with: [3H]colchicine 5.0 µM	–	inhibition	80 ± 2%
CC(C)C[C@H](NC(=O)[C@@H](NC(=O)[C@@H](N)[C@@H](C)O)C(C)C)C(=O)N1CCC[C@H]1C(=O)N1CCC[C@H]1C(=O)N1CCC[C@H]1C(=O)N1CCC[C@H]1C(=O)N[C@@H](Cc1ccc(O)cc1)C(=O)N[C@@H](CCCNC(=N)N)C(=O)N[C@@H](C)C(=O)N[C@@H](CCCNC(=N)N)C(=O)N[C@@H](CC(N)=O)C(=O)O	YAP1 WW1 domain	binding, ITC	–	pH 7.0, 25 °C, WW1 domain	–	ΔH	-14.6 ± 0.35 kcal/mol
Nc1ncnc2c1ncn2[C@@H]1O[C@H](COP(=O)(O)OP(=O)(O)OP(=O)(O)O)[C@@H](O)[C@H]1O	Sodium/potassium-transporting ATPase subunit alpha-1 (ATP1A1, Canis lupus familiaris, UniProt P50997)	–	–	4 °C, preparation A, together with: 45 mM Na+ arginine replacement	–	koff	1.5 ± 0.36 s⁻¹
CC(C(=O)O)c1ccc(-c2ccccc2)c(F)c1 (stereo not drawn)	Degenerin mec-4 (mec-4, Caenorhabditis elegans, UniProt P24612, A713T)	ion current, two-electrode voltage clamp	Xenopus oocytes coexpressing MEC-2	30 µM, -85 mV	relative to: uninjected oocytes, positive inhibition, negative potentiation	current change	-3.7 µA
CC(C)C[C@H](NC(=O)[C@@H](NC(=O)[C@@H](N)[C@@H](C)O)C(C)C)C(=O)N1CCC[C@H]1C(=O)N1CCC[C@H]1C(=O)N1CCC[C@H]1C(=O)N1CCC[C@H]1C(=O)N[C@@H](Cc1ccc(O)cc1)C(=O)N[C@@H](C)C(=O)N[C@@H](Cc1c[nH]cn1)C(=O)N[C@@H](CCCNC(=N)N)C(=O)N[C@@H](CC(N)=O)C(=O)O	YAP1 WW2 domain	binding, ITC	–	pH 7.0, 25 °C, WW2 domain	–	TΔS	-3.12 ± 0.01 kcal/mol
meso-zeaxanthin	Retinol-binding protein 3 (RBP3, Bos taurus, UniProt P12661)	SPR	–	pH 7.4, 25 °C	–	koff	0.09 ± 0.6 s⁻¹
CN(CCOc1ccc(CC2SC(=O)NC2=O)cc1)c1ccccn1 (stereo not drawn)	Peroxisome proliferator-activated receptor gamma (Rattus norvegicus, UniProt O88275)	reporter gene, agonist	CHO-K1	1 µM	–	induction	> 7
CSc1ccc(/C=C2/C(C)=C(CC(=O)O)c3cc(F)ccc32)cc1	cGMP-inhibited 3',5'-cyclic phosphodiesterase 3A (PDE3A, Homo sapiens, UniProt Q14432)	cAMP hydrolysis, inhibitor, IMAP fluorescence polarization	–	up to 200 µM	–	IC50	inactive
IINFEKL	Endoplasmic reticulum aminopeptidase 1 (ERAP1, Homo sapiens, UniProt Q9NZ08, V737R)	L-AMC hydrolysis, activator	peptide	100 µM, 5 min, pH 8.0, 27 °C, mutant V737R, together with: L-AMC varied from 0 µM	–	Vmax	107 ± 1 nmol/min/µg
O=C(NCCc1ccc2c(c1)[C@H]1C[C@@H](N2)C(O)CO1)C(=O)NC1CCCC1 (stereo in doubt)	Peptidyl-prolyl cis-trans isomerase F, mitochondrial (PPIF, Homo sapiens, UniProt P30405, K175I)	binding, surface plasmon resonance	–	–	relative to: fragment Kd over compound Kd	potency gain	> 1000 fold
